Results pooled from the literature.
Lines come from different studies, so protocols differ. Several values in a cell are separate wells, animals, samples, runs or records. ± marks the error that the study gave.
Spike glycoprotein: Spike glycoprotein (Severe acute respiratory syndrome coronavirus 2, UniProt P0DTC2)
Chain of UniProt P41145 (whole entry, looked up): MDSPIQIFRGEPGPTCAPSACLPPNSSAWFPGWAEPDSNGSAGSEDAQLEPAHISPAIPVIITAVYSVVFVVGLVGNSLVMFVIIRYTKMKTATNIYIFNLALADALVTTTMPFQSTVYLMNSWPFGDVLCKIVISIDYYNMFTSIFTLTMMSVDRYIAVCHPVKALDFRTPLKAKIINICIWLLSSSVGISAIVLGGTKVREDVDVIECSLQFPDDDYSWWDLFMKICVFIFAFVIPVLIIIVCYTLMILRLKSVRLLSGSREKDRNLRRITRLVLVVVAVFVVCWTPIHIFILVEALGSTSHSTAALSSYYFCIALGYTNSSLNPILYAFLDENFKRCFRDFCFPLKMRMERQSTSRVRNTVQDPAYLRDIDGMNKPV
Chain of UniProt P41143 (whole entry, looked up): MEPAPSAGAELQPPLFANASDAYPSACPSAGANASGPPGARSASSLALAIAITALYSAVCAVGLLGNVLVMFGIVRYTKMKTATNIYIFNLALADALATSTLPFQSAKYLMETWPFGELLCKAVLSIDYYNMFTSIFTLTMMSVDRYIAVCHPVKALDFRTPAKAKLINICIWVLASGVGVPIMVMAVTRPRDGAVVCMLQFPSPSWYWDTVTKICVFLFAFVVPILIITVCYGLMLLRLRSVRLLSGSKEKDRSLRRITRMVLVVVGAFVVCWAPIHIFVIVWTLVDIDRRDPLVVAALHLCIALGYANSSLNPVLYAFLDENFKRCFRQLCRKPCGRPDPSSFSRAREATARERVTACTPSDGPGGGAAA

SMILES	tested on	assay	test system	setting	quantity	value
CCCCCCCCCCCCCCCC(=O)N[C@@H](CCC(=O)NCCOCCOCCC(=O)NCCOCCOCCC(=O)NCCCC[C@H](NC(=O)[C@H](CC(=O)O)NC(=O)[C@H](CC(C)C)NC(=O)[C@H](Cc1ccc(O)cc1)NC(=O)[C@H](CCCCN)NC(=O)[C@H](CO)NC(=O)[C@H](Cc1ccc(O)cc1)NC(=O)[C@H](CC(=O)O)NC(=O)[C@H](CO)NC(=O)[C@@H](NC(=O)[C@H](Cc1ccccc1)NC(=O)[C@@H](NC(=O)CNC(=O)[C@H](CCC(N)=O)NC(=O)[C@@H](CO)NC(=O)[C@@H](N)Cc1c[nH]cn1)[C@@H](C)O)[C@@H](C)O)C(=O)N[C@@H](CCCNC(=N)N)C(=O)N[C@@H](CCCNC(=N)N)C(=O)N[C@@H](C)C(=O)N[C@@H](CCC(N)=O)C(=O)N[C@@H](CC(=O)O)C(=O)N[C@@H](Cc1ccccc1)C(=O)N[C@H](C(=O)N[C@@H](CCC(N)=O)C(=O)N[C@@H](Cc1c[nH]c2ccccc12)C(=O)N[C@@H](CC(C)C)C(=O)N[C@@H](CC(C)C)C(=O)N[C@@H](CC(N)=O)C(=O)N[C@H](C(=O)NCC(=O)NCC(=O)N1CCC[C@H]1C(=O)N[C@@H](CO)C(=O)N[C@@H](CO)C(=O)NCC(=O)N[C@@H](C)C(=O)N1CCC[C@H]1C(=O)N1CCC[C@H]1C(=O)N1CCC[C@H]1C(=O)N[C@@H](CO)C(N)=O)[C@@H](C)O)C(C)C)C(=O)O		measured: AST	Sprague-Dawley rat, female	subcutaneous, 20 µg/kg once daily, 14 days	serum enzyme activity	78.5 ± 10.3 U/L
CC[C@H](C)[C@H](NC(=O)[C@H](CCCCNC(=O)CN(CCNC(=O)CN(CCNC(=O)CN(CCNC(=O)CN(CCNC(=O)CN(CCNC(=O)[C@H](CCCNC(=N)N)NC(C)=O)C(=O)Cn1cc(C)c(=O)[nH]c1=O)C(=O)Cn1ccc(N)nc1=O)C(=O)Cn1cnc2c(=O)[nH]c(N)nc21)C(=O)Cn1cnc2c(=O)[nH]c(N)nc21)C(=O)Cn1ccc(N)nc1=O)NC(=O)[C@H](CC(=O)O)NC(=O)[C@H](CO)NC(=O)[C@@H](NC(=O)[C@H](CCCNC(=N)N)NC(=O)[C@H](CCSC)NC(=O)[C@H](CO)NC(=O)[C@H](C)NC(=O)[C@H](CCC(=O)O)NC(=O)[C@H](C)NC(=O)[C@H](Cc1c[nH]cn1)NC(=O)CNC(=O)[C@H](CC(C)C)NC(=O)[C@H](CCC(=O)O)NC(=O)[C@H](CC(=O)O)NC(=O)[C@H](CC(C)C)NC(=O)[C@H](CC(C)C)NC(=O)[C@H](CCCNC(=N)N)NC(=O)[C@H](CCSC)NC(=O)[C@H](CCCC(=O)NCCN(CC(=O)NCCN(CC(=O)NCCN(CC(=O)NCCN(CC(=O)N[C@@H](CCCNC(=N)N)C(N)=O)C(=O)Cn1cnc2c(=O)[nH]c(N)nc21)C(=O)Cn1ccc(N)nc1=O)C(=O)Cn1ccc(N)nc1=O)C(=O)Cn1cnc2c(=O)[nH]c(N)nc21)NC(=O)[C@H](CCC(=O)O)NC(=O)[C@H](Cc1ccc(O)cc1)NC(=O)[C@@H](NC(=O)[C@H](CCCCN)NC(=O)[C@H](CCC(N)=O)NC(=O)[C@H](CC1CCC1)NC(=O)[C@@H](NC(=O)[C@H](Cc1c[nH]c2ccccc12)NC(=O)[C@H](CCC(=O)O)NC(=O)[C@H](CCCCN)NC(=O)[C@H](CC(=O)O)NC(C)=O)[C@@H](C)CC)[C@@H](C)CC)C(C)C)C(=O)N[C@@H](Cc1ccc(O)cc1)C(=O)N[C@@H](CCC(=O)O)C(=O)N[C@@H](Cc1ccccc1)C(=O)N[C@@H](CCSC)C(=O)N[C@@H](CCCCN)C(=O)N[C@@H](CCCCN)C(N)=O	Spike glycoprotein	binding, SPR			Kd	0.12 nM
CC[C@H](C)[C@H](NC(=O)[C@H](Cc1c[nH]c2ccccc12)NC(=O)[C@H](Cc1ccccc1)NC(=O)[C@@H](N)CC(N)=O)C(=O)N[C@@H](CO)C(=O)N1CCC[C@H]1C(=O)N[C@@H](CCCCN)C(=O)N[C@@H](CC(C)C)C(=O)N[C@@H](C)C(=O)N[C@@H](Cc1ccccc1)C(=O)N[C@@H](C)C(=O)N[C@@H](CC(C)C)C(=O)NCC(=O)NCC(=O)NCC(=O)N[C@@H](CO)C(=O)O	Spike glycoprotein, S2 subunit (Severe acute respiratory syndrome coronavirus 2, UniProt P0DTC2)	binding			Kd	561000 nM
CC[C@H](C)[C@H](NC(=O)[C@H](CCC(=O)O)NC(=O)[C@H](CC(=O)O)NC(=O)[C@H](CO)NC(=O)[C@@H](NC(=O)[C@H](CCCNC(=N)N)NC(=O)[C@H](CCSC)NC(=O)[C@H](CO)NC(=O)[C@H](C)NC(=O)[C@H](CCC(=O)O)NC(=O)[C@H](C)NC(=O)[C@H](Cc1c[nH]cn1)NC(=O)CNC(=O)[C@H](CC(C)C)NC(=O)[C@H](CCC(=O)O)NC(=O)[C@H](CC(=O)O)NC(=O)[C@H](CC(C)C)NC(=O)[C@H](CC(C)C)NC(=O)[C@H](CCCNC(=N)N)NC(=O)[C@H](CCSC)NC(=O)[C@H](CCC(=O)O)NC(=O)[C@H](CCC(=O)O)NC(=O)[C@H](Cc1ccc(O)cc1)NC(=O)[C@@H](NC(=O)[C@H](CCCCN)NC(=O)[C@H](CCC(N)=O)NC(=O)[C@H](CC(C)C)NC(=O)[C@@H](NC(=O)[C@H](Cc1c[nH]c2ccccc12)NC(=O)[C@H](CCC(=O)O)NC(=O)[C@H](CCCCN)NC(=O)[C@@H](N)CC(=O)O)[C@@H](C)CC)[C@@H](C)CC)C(C)C)C(=O)N[C@@H](Cc1ccc(O)cc1)C(=O)N[C@@H](CCC(=O)O)C(=O)N[C@@H](Cc1ccccc1)C(=O)N[C@@H](CCSC)C(=O)N[C@@H](CCCCN)C(=O)N[C@@H](CCCCN)C(N)=O	Spike glycoprotein	binding, SPR			Kd	1.9 nM
CNC(C)C1C(O)CC2(C)C3CCC4C(C)(C)C(NC)CCC45CC35CCC12C (stereo not drawn)	Spike glycoprotein	binding, BLI			Kd	38700 nM
CCSC[C@H](NC(=O)[C@H](CCCC(=O)NCCN(CC(=O)NCCN(CC(=O)NCCN(CC(=O)NCCN(CC(=O)N[C@@H](CCCNC(=N)N)C(N)=O)C(=O)Cn1cnc2c(=O)[nH]c(N)nc21)C(=O)Cn1ccc(N)nc1=O)C(=O)Cn1ccc(N)nc1=O)C(=O)Cn1cnc2c(=O)[nH]c(N)nc21)NC(=O)[C@H](CCC(=O)O)NC(=O)[C@H](Cc1ccc(O)cc1)NC(=O)[C@@H](NC(=O)[C@H](CCCCN)NC(=O)[C@H](CCC(N)=O)NC(=O)[C@H](CC1CCC1)NC(=O)[C@@H](NC(=O)[C@H](Cc1c[nH]c2ccccc12)NC(=O)[C@H](CCC(=O)O)NC(=O)[C@H](CCCCN)NC(=O)[C@H](CC(=O)O)NC(C)=O)[C@@H](C)CC)[C@@H](C)CC)C(=O)N[C@@H](CCCNC(=N)N)C(=O)N[C@@H](CC(C)C)C(=O)N[C@@H](CC(C)C)C(=O)N[C@@H](CC(=O)O)C(=O)N[C@@H](CCC(=O)O)C(=O)N[C@@H](CC(C)C)C(=O)NCC(=O)N[C@@H](Cc1c[nH]cn1)C(=O)N[C@@H](C)C(=O)N[C@@H](CCC(=O)O)C(=O)N[C@@H](C)C(=O)N[C@@H](CO)C(=O)N[C@@H](CCSC)C(=O)N[C@@H](CCCNC(=N)N)C(=O)N[C@H](C(=O)N[C@@H](CO)C(=O)N[C@@H](CC(=O)O)C(=O)N[C@@H](CCCCNC(=O)CN(CCNC(=O)CN(CCNC(=O)CN(CCNC(=O)CN(CCNC(=O)[C@H](CCCNC(=N)N)NC(C)=O)C(=O)Cn1ccc(N)nc1=O)C(=O)Cn1cnc2c(=O)[nH]c(N)nc21)C(=O)Cn1cnc2c(=O)[nH]c(N)nc21)C(=O)Cn1ccc(N)nc1=O)C(=O)N[C@H](C(=O)N[C@@H](Cc1ccc(O)cc1)C(=O)N[C@@H](CCC(=O)O)C(=O)N[C@@H](Cc1ccccc1)C(=O)N[C@@H](CCSC)C(=O)N[C@@H](CCCCN)C(=O)N[C@@H](CCCCN)C(N)=O)[C@@H](C)CC)C(C)C	Spike glycoprotein	binding, SPR			Kd	0.081 nM
CC(C)C[C@H](NC(=O)[C@H](CO[C@@H]1O[C@H](CO)[C@@H](O)[C@H](O)[C@H]1O)NC(=O)[C@H](CCCCN)NC(=O)[C@H](CC(C)C)NC(=O)CNC(=O)[C@H](CCCCN)NC(=O)[C@H](CCC(=O)O)NC(=O)[C@H](C)NC(=O)[C@H](CC(C)C)NC(=O)[C@H](CC(N)=O)NC(=O)[C@@H]1CCCN1C(=O)[C@H](CC(C)C)NC(=O)[C@H](Cc1ccccc1)NC(=O)CNC(=O)[C@H](NC(=O)[C@@H](N)Cc1ccc(O)cc1)[C@H](C)O)C(N)=O	OPRK1 (Homo sapiens, UniProt P41145)	ligand displacement, radioligand		pH 7.5, cell membranes	Ki	6.3 nM
C=C1C(=O)OC2C1CCC(=C)C1CC(OC3OC(CO)C(O)C(OC4OC(CO)C(O)C(O)C4O)C3O)C(=C)C12 (stereo not drawn)	Spike glycoprotein	binding			Kd	3560 nM
CC(C)C[C@H](NC(=O)[C@H](CO)NC(=O)[C@H](CCCCN)NC(=O)[C@H](CC(C)C)NC(=O)[C@H](C)NC(=O)[C@H](CCCCN)NC(=O)[C@H](CCC(=O)O)NC(=O)CNC(=O)[C@H](CC(C)C)NC(=O)[C@H](CC(N)=O)NC(=O)[C@@H]1CCCN1C(=O)[C@H](CC(C)C)NC(=O)[C@H](Cc1ccccc1)NC(=O)CNC(=O)[C@H](NC(=O)[C@@H](N)Cc1ccc(O)cc1)[C@H](C)O)C(N)=O	OPRD1 (Homo sapiens, UniProt P41143)	ligand displacement, radioligand		pH 7.5, cell membranes	Ki	11 nM
COc1ccc(-c2oc3c(CC=C(C)C)c(O[C@@H]4O[C@H](CO)[C@@H](O)[C@H](O)[C@H]4O)cc(O)c3c(=O)c2O[C@@H]2O[C@@H](C)[C@H](O)[C@@H](O)[C@H]2O[C@@H]2O[C@@H](C)[C@H](O)[C@@H](O)[C@H]2O)cc1	Spike glycoprotein, S1 subunit (Severe acute respiratory syndrome coronavirus 2, UniProt P0DTC2)	binding			Kd	2910 nM and 2860 nM
O=C(C=Cc1ccc(O)c(O)c1)OC1CC(O)(C(=O)O)CC(OC(=O)C=Cc2ccc(O)c(O)c2)C1O (stereo not drawn)	Spike glycoprotein	binding, biolayer interferometry			Kd	1480 nM
CC(C)C[C@H](NC(=O)[C@H](Cc1c[nH]c2ccccc12)NC(=O)[C@H](CCCNC(=N)N)NC(=O)[C@H]1CCC[C@@H]1NC(=O)[C@H](CCC(=O)O)NC(=O)[C@H](CC(=O)O)NC(=O)[C@H](CC(=O)O)NC(=O)[C@@H](N)CC(N)=O)C(=O)N[C@H]1CCC[C@@H]1C(=O)N[C@H](C(=O)N[C@@H](CC(=O)O)C(=O)N[C@H]1CCC[C@@H]1C(=O)N[C@H](C(=O)N[C@@H](Cc1ccc(O)cc1)C(=O)N[C@@H](CCC(=O)O)C(=O)N[C@H]1CCC[C@@H]1C(=O)N[C@@H](Cc1c[nH]c2ccccc12)C(=O)N[C@@H](Cc1c[nH]cn1)C(N)=O)C(C)C)[C@@H](C)O	Spike glycoprotein, RBD (Severe acute respiratory syndrome coronavirus 2, UniProt P0DTC2)				Kd	11400 nM

For quick reference, copied from above:
SMILES	tested on	assay	test system	setting	quantity	value
CC[C@H](C)[C@H](NC(=O)[C@H](Cc1c[nH]c2ccccc12)NC(=O)[C@H](Cc1ccccc1)NC(=O)[C@@H](N)CC(N)=O)C(=O)N[C@@H](CO)C(=O)N1CCC[C@H]1C(=O)N[C@@H](CCCCN)C(=O)N[C@@H](CC(C)C)C(=O)N[C@@H](C)C(=O)N[C@@H](Cc1ccccc1)C(=O)N[C@@H](C)C(=O)N[C@@H](CC(C)C)C(=O)NCC(=O)NCC(=O)NCC(=O)N[C@@H](CO)C(=O)O	Spike glycoprotein, S2 subunit (Severe acute respiratory syndrome coronavirus 2, UniProt P0DTC2)	binding			Kd	561000 nM
CC(C)C[C@H](NC(=O)[C@H](CO[C@@H]1O[C@H](CO)[C@@H](O)[C@H](O)[C@H]1O)NC(=O)[C@H](CCCCN)NC(=O)[C@H](CC(C)C)NC(=O)CNC(=O)[C@H](CCCCN)NC(=O)[C@H](CCC(=O)O)NC(=O)[C@H](C)NC(=O)[C@H](CC(C)C)NC(=O)[C@H](CC(N)=O)NC(=O)[C@@H]1CCCN1C(=O)[C@H](CC(C)C)NC(=O)[C@H](Cc1ccccc1)NC(=O)CNC(=O)[C@H](NC(=O)[C@@H](N)Cc1ccc(O)cc1)[C@H](C)O)C(N)=O	OPRK1 (Homo sapiens, UniProt P41145)	ligand displacement, radioligand		pH 7.5, cell membranes	Ki	6.3 nM
